Experimental data pooled from the literature.
Numbered parts are unrelated; each lists some results of a single study. Positions count from the first letter of the parent shown.

Study 1 — method: universal PBM; molecule type: double-stranded DNA, one strand shown; sample: in vitro; concentration: not given; direction: higher = stronger binding
Target: Sal-like protein 4, full length isoform B (SALL4, Homo sapiens, UniProt Q9UJQ4-2, residues 1-616)
Setting: 8-mer, flanks averaged, mean of replicates
Construct (chain): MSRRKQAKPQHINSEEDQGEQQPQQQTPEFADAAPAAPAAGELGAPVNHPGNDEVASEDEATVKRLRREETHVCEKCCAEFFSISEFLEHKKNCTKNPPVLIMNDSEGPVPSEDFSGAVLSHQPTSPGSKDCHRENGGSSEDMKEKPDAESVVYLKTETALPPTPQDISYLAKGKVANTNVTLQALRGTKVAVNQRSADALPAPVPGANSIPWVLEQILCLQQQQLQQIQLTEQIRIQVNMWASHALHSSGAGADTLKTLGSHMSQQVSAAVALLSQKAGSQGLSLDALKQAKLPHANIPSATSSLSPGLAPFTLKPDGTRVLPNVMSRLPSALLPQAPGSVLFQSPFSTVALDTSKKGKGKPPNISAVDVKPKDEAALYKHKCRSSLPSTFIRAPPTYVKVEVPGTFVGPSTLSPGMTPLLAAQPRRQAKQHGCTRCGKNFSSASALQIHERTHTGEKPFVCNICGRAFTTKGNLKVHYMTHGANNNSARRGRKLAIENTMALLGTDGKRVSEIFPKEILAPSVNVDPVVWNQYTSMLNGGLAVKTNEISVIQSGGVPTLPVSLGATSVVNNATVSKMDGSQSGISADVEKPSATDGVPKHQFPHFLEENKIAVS
Strand | E-score
CCTGTGGC | -0.256
AAACCTAT | 0.218
ATGATCAC | 0.198
CGCTCAAC | -0.111
CGCGCGAA | -0.301
CCTTCGGC | -0.403
TAATTCGA | 0.228

Study 2 — method: protein binding microarray; molecule type: double-stranded DNA, one strand shown; sample: in vitro; concentration: not given; baseline: not given; direction: higher = stronger binding
Target: Histone acetyltransferase KAT6A, both winged helices, GST fusion (KAT6A, Homo sapiens, UniProt Q92794, residues 1-181)
Setting: 8-mer, flanks averaged, mean of 2 arrays, mostly near background
Construct (chain): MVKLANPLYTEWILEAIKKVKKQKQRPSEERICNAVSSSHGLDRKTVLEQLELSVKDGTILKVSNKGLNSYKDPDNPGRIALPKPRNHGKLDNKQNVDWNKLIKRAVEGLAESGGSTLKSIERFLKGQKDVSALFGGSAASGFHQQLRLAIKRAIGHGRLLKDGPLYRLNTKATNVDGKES
Strand | E-score
CTTGCGAA | 0.11
GTTATAAC | 0.159
AGAGGGGA | -0.212
CCTACGAG | -0.136
CTACGAAG | -0.106

Study 3 — target: CCNB2, cyclin fold, Cln2 fusion (human); method: yeast growth competition, sequencing; sample: yeast; setting: weak parent motif; baseline: not given; direction: higher = stronger binding
Parent: MASTL docking peptide (human); PMIAKNLMCELDE; partner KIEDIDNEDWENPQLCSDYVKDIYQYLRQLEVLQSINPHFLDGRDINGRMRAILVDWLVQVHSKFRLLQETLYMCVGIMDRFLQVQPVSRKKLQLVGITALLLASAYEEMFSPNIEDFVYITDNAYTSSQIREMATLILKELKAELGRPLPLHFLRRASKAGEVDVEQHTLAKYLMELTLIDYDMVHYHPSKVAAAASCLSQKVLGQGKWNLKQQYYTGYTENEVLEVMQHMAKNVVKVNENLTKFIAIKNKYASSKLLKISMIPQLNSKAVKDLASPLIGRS
Variant | normalised enrichment score
PMIAKNLMCTLDE [E10T] | -0.492
PMIAKNLMCEGDE [L11G] | 0.066
PMIAKNRMCELDE [L7R] | 0.0881
PMIAKNLMCELNE [D12N] | 0.533
PMIAKNLGCELDE [M8G] | -0.178
PMICKNLMCELDE [A4C] | 0.705
PMIAKNLMCYLDE [E10Y] | 0.524
PDIAKNLMCELDE [M2D] | 1.31

Mixed results
Substance | target | test | test system | setting | how to read | endpoint | result
PhoQ, residues 284 288 289 292 302 303 TASMAF | PhoP, residues 12 14 15 18 19 SQCLL (Escherichia coli, UniProt P23836) | Sort-seq, item: YFP reporter | E. coli | PhoQ-PhoP variant library, with: 10 µM Mg2+ | baseline: high Mg2+ state, higher = stronger signaling | fold induction | 17.2
